# Measurements collected from several papers.
# Several values in a cell are separate wells, animals, samples, runs or records. ± gives the spread as reported.
# Integrin alpha-5/beta-1: Integrin alpha-5/beta-1 (Homo sapiens, UniProt P05556+P08648)
# Chain of UniProt P05556 (whole entry, looked up): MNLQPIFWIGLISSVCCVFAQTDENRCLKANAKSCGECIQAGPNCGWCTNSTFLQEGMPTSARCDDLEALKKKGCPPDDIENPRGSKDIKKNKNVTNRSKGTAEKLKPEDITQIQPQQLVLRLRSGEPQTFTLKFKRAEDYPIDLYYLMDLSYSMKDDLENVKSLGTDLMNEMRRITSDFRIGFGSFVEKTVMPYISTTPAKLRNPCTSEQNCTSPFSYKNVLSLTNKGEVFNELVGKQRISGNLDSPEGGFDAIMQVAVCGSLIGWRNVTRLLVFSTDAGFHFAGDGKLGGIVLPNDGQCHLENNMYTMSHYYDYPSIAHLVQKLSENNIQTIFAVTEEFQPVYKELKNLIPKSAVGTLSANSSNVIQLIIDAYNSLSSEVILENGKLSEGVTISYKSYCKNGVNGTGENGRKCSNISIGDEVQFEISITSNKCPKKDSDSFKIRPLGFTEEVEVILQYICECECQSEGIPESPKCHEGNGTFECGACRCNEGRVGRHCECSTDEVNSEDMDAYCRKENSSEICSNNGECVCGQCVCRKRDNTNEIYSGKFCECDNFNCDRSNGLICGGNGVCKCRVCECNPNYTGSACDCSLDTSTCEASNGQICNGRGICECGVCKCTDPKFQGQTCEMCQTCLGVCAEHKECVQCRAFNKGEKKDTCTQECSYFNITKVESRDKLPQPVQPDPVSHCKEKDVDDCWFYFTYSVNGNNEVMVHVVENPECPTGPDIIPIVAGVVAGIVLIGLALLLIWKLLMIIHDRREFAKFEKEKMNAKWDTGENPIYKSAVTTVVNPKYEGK
# Chain of UniProt P08648 (whole entry, looked up): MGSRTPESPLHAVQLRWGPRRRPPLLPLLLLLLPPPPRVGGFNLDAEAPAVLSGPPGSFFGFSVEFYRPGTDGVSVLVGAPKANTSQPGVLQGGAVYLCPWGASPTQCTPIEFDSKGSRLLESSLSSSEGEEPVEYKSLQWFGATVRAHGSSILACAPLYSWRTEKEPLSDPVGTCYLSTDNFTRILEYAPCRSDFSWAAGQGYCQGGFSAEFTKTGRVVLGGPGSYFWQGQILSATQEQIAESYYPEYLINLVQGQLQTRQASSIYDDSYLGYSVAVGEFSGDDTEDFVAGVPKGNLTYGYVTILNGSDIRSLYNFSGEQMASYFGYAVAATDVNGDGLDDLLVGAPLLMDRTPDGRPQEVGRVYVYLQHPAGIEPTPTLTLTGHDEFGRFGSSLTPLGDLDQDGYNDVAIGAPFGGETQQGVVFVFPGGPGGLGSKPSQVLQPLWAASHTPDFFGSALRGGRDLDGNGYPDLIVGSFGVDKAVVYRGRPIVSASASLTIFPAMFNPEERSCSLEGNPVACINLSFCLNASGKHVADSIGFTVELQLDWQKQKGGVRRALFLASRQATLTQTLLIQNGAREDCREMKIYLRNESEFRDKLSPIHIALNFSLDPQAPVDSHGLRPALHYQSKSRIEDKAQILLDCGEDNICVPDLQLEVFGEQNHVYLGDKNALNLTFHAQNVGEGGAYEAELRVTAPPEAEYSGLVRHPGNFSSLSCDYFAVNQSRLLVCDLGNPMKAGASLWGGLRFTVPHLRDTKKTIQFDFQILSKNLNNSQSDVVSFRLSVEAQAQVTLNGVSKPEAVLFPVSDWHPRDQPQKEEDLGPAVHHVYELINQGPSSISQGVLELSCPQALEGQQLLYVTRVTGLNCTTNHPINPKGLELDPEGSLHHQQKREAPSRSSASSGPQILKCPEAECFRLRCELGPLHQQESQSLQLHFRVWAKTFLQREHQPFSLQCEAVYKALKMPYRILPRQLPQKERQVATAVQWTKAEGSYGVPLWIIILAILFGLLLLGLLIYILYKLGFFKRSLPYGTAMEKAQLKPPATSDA
# CXCR4: C-X-C chemokine receptor type 4 (CXCR4, Homo sapiens, UniProt P61073)
# Chain of UniProt P61073 (whole entry, looked up): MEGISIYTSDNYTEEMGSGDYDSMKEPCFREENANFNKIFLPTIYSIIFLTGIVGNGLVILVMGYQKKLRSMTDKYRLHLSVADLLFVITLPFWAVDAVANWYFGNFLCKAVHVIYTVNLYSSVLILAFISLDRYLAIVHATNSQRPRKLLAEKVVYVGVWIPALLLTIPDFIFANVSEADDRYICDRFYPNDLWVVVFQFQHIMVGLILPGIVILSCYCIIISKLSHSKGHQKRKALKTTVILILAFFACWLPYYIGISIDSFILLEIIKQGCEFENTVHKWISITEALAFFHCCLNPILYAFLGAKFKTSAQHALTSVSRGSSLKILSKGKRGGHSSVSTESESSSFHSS
# DPP9: Dipeptidyl peptidase 9 (DPP9, Homo sapiens, UniProt Q86TI2)
# Chain of UniProt Q86TI2 (whole entry, looked up): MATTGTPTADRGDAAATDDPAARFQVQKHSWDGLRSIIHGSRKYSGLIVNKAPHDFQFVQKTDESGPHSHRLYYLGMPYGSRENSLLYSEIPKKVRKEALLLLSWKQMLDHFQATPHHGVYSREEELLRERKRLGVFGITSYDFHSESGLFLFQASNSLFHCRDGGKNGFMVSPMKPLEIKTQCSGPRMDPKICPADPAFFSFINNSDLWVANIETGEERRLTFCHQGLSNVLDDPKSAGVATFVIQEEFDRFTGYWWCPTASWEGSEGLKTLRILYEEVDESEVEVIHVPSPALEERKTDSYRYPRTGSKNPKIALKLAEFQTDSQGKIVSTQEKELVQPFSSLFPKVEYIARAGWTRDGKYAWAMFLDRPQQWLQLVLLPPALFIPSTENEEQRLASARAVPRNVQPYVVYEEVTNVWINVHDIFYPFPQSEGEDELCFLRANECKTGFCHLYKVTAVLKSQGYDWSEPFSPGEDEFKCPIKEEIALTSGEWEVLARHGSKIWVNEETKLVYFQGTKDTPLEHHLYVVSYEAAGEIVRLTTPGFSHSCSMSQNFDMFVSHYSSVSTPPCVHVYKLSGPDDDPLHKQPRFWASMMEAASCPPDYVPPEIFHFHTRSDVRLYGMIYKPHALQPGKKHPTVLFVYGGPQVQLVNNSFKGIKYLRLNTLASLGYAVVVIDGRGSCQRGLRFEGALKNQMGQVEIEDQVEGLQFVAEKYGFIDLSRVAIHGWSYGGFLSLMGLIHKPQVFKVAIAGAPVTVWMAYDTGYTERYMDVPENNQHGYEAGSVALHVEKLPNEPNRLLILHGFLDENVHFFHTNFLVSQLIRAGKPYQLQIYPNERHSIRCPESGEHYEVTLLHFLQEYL
# CELF1 del215-384: CUGBP Elav-like family member 1 (CELF1, Homo sapiens, UniProt Q92879, del215-384)
# Chain of UniProt Q92879 (whole entry, unmodified, looked up): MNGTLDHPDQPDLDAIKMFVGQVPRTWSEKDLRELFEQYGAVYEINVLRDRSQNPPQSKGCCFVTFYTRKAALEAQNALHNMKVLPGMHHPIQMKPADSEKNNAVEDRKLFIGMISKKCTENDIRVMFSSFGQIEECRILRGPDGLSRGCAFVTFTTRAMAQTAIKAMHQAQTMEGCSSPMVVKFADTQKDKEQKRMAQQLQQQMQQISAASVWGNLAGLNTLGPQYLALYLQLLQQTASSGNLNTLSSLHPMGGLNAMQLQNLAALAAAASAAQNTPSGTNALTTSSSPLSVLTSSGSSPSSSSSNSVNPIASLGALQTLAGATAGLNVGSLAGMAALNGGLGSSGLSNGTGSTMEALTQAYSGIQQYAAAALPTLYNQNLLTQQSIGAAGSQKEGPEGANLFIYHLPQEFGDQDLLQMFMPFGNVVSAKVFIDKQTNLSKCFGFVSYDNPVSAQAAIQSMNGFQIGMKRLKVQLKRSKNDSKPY
# CA9: Carbonic anhydrase 9 (CA9, Homo sapiens, UniProt Q16790)
# F2: Prothrombin (F2, Homo sapiens, UniProt P00734)
# Methionyl-tRNA synthetase, putative: Methionyl-tRNA synthetase, putative (Trypanosoma brucei brucei, UniProt Q38C91)
# Thymocyte selection-associated high mobility group box protein TOX with KAT7: Thymocyte selection-associated high mobility group box protein TOX, with KAT7 (Homo sapiens, UniProt O94900)
# Chain of UniProt O94900 (whole entry, looked up): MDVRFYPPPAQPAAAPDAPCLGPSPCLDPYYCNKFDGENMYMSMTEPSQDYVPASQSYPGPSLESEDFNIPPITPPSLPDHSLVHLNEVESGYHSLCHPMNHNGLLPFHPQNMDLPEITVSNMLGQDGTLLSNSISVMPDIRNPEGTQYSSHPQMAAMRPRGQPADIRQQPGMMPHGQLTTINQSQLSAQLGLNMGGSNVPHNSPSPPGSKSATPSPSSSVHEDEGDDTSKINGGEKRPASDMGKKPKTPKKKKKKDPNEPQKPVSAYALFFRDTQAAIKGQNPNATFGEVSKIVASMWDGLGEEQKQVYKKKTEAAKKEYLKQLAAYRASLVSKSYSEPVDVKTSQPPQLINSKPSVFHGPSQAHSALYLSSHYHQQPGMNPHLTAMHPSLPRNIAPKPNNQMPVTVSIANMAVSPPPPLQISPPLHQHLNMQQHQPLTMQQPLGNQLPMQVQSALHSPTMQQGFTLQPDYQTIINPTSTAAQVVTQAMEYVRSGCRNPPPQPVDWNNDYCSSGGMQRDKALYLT
# CD274 with PD-1: Programmed cell death 1 ligand 1, with PD-1 (CD274, Homo sapiens, UniProt Q9NZQ7)
# Chain of UniProt Q9NZQ7 (whole entry, looked up): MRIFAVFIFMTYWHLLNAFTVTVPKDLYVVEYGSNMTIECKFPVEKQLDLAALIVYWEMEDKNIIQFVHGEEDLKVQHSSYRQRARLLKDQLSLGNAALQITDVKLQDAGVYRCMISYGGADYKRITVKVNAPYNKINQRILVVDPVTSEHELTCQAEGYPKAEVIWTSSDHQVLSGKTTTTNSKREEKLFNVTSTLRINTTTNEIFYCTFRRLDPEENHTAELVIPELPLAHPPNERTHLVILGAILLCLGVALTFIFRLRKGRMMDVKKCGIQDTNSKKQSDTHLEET
# PSMB5: Proteasome Macropain subunit MB1 (PSMB5, Homo sapiens, UniProt P28074)
# Chain of UniProt P28074 (whole entry, looked up): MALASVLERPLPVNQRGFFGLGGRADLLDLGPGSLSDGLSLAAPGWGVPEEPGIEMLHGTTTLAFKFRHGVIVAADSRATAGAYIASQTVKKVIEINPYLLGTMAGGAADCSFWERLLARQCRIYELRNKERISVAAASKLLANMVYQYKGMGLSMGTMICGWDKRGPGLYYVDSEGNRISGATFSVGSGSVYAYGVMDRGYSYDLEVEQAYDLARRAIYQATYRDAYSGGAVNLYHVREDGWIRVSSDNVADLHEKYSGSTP
# Chain of UniProt P41968 (whole entry, looked up): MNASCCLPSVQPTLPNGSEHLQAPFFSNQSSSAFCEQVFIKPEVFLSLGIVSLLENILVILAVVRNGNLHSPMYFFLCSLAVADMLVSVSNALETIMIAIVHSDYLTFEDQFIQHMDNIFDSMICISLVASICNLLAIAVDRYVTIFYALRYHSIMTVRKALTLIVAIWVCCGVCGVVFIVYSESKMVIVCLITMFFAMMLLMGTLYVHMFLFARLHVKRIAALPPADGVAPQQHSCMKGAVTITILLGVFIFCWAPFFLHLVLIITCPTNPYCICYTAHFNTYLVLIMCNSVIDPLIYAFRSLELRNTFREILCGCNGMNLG
SMILES,target,assay,test system,setting,scale,IC50
N#Cc1cccc(-c2cc(Cl)c(C(=O)N[C@@H](CNC(=O)CNC(=O)c3cccc(NC(=N)N)c3)C(=O)O)c(Cl)c2)c1,Integrin alpha-5/beta-1,"cell adhesion, inhibitor",SW480,added: fibronectin 0.3 µg/mL,,10 nM
COc1ccccc1N1CCN(c2nc(Nc3ccc(C)cc3C)c3nccnc3n2)CC1,CXCR4,"β-arrestin recruitment, antagonist",,,,32000 nM
CN(CB(O)O)C(=S)[C@@H](N)CCC(=O)O,DPP9,"enzyme activity, inhibitor, fluorescence",,,,11000 nM
CCc1n[nH]c(=S)[nH]1,CELF1 del215-384,"CELF1-RNA binding, inhibitor, fluorescence polarization",,"20 nM CELF1, added: 10 nM RNA",,5000 ± 670 nM
Cc1ccc(N=C2CC(=O)c3sc(C)nc3C2=O)cc1,"Histone-lysine N-methyltransferase EHMT2 (EHMT2, Homo sapiens, UniProt Q96KQ7)","enzyme activity, inhibitor",,,,3100 nM
CNC(=S)NCCCC[C@H](NS(=O)(=O)c1ccc(C(=O)NCc2cn(CCCNc3ccc([N+](=O)[O-])c4nonc34)nn2)cc1)C(=O)N[C@@H](CCCNC(=N)N)C(=O)N[C@@H](CC1CCCCC1)C(N)=O,"NAD-dependent protein deacetylase sirtuin-3, mitochondrial (SIRT3, Homo sapiens, UniProt Q9NTG7)","enzyme activity, inhibitor, fluorescence",,,,370 nM
O=C(Cc1ccc(OCc2ccccc2)cc1)NC1(C(=O)O)CCN(C(=O)c2ccc(-c3cccc(Cl)c3)cc2)CC1,"Lysophosphatidic acid receptor 4 (LPAR4, Homo sapiens, UniProt Q99677)","antagonist, GloSensor cAMP",,,,> 10000 nM
CC(=O)Nc1ccc(CN(CC(=O)Nc2ccccc2F)C(=O)c2ccc(S(N)(=O)=O)c(C)c2)cc1,CA9,"enzyme activity, inhibitor",,,,41.7 nM
Cc1nc2ccc(Br)cc2c(=O)n1N,F2,"enzyme activity, inhibitor",,,,9050 nM
Nc1nc(OCc2ccc(CNC(=O)C(F)(F)F)cc2)c2nc[nH]c2n1,"Peptidyl-prolyl cis-trans isomerase NIMA-interacting 1 (PIN1, Homo sapiens, UniProt Q13526)",DELFIA displacement,,"6 h preincubation, 2 h incubation, added: biotinylated D-peptide",,> 100000 nM
CC(C)[C@H](NC(=O)[C@@H]1CCCN1C(=O)[C@H](CCCCN)NC(=O)[C@H](Cc1ccccc1)NC(=O)[C@H](Cc1ccccc1)NC(=O)[C@H](CC(=O)O)NC(=O)[C@H](CCC(=O)O)NC(=O)[C@H](Cc1ccc(O)cc1)NC(=O)[C@H](CC(=O)O)NC(=O)[C@H](CCC(=O)O)NC(=O)[C@H](CC(=O)O)NC(=O)[C@@H](N)CCC(=O)O)C(=O)N[C@H](C(=O)N[C@@H](C)C(=O)N[C@@H](Cc1ccc(O)cc1)C(=O)N[C@@H](Cc1ccccc1)C(N)=O)[C@@H](C)O,"C-C motif chemokine 2 (CCL2, Homo sapiens, UniProt P13500)","chemokine binding, flow cytometry",THP-1,added: fluorescent CCL2 1.2 nM,,58100 nM
Fc1cc2nc(NCCCNCc3cc(Cl)cc(Cl)c3)[nH]c2cc1F,"Methionyl-tRNA synthetase, putative","enzyme activity, inhibitor",,,,< 10 nM
Cc1cc(C(=O)Nc2ccc(NC(=O)c3ccco3)cc2)c(C)n1Cc1ccc(S(N)(=O)=O)cc1,CA9,"enzyme activity, inhibitor",,,,14.1 nM
Fc1ccc2[nH]c(NCCCNCc3cc(Cl)cc(Cl)c3)nc2c1,"Methionyl-tRNA synthetase, putative","enzyme activity, inhibitor",,,,< 10 nM
N#Cc1ccnc(N2C(=O)CC[C@H]2C(=O)N(c2cncc(F)c2)[C@H](C(=O)NC2CC(F)(F)C2)c2ccccc2Cl)c1,"Isocitrate dehydrogenase [NADP], mitochondrial, heterodimer with wild-type (IDH2, Homo sapiens, UniProt P48735, R172K)","enzyme activity, inhibitor, NADPH consumption",,"16 h, reverse reaction",,72000 nM
Sc1nnc(-c2cccs2)[nH]1,CELF1 del215-384,"CELF1-RNA binding, inhibitor, fluorescence polarization",,"20 nM CELF1, added: 10 nM RNA",,320 ± 30 nM
C[C@@H](O)[C@@H]1NC(=O)[C@H](CCCCN)NC(=O)[C@@H](Cc2ccc(NC(N)=O)cc2)NC(=O)[C@H](Cc2ccc(O)cc2)NC(=O)[C@H](NC(=O)[C@H](Cc2ccc(Cl)cc2)NC(=O)CN2CCN(CC(=O)O)CCN(CC(=O)O)CCN(CC(=O)O)CC2)CSSC[C@@H](C(=O)N[C@@H](Cc2ccc3ccccc3c2)C(N)=O)NC1=O,"Somatostatin receptor type 3 (SSTR3, Homo sapiens, UniProt P32745)","ligand displacement, radioligand",,,,> 1000 nM
Cc1n[nH]c(S)n1,CELF1 del215-384,"CELF1-RNA binding, inhibitor, fluorescence polarization",,"20 nM CELF1, added: 10 nM RNA",,1280 ± 280 nM
N#Cc1c(N)nc2c(c1-c1ccc(CO)o1)Cc1cc(O)ccc1-2,Thymocyte selection-associated high mobility group box protein TOX with KAT7,"TOX-KAT7 binding, inhibitor, ELISA",,,no inhibition at 10 µM,510 nM
Cc1c(COc2cc(OCc3cccc(C#N)c3)c(CN3CCCC[C@@H]3C(=O)O)cc2Cl)cccc1-c1cccc(OCCCCCC(=O)NO)c1,CD274 with PD-1,"PD-1/PD-L1 binding, inhibitor, HTRF",,,,52.2 nM
COc1cc2c(cc1OC)[C@@H]1Cc3ccc(OC)c(OC)c3CN1CC2,"Hematopoietic prostaglandin D synthase (HPGDS, Homo sapiens, UniProt O60760)","enzyme activity, inhibitor, fluorescence polarisation",,"1 h, room temperature",,47800 ± 1100 nM
CCCCCCC1CCC/C1=N\NC(N)=S (stereo not shown),"Scavenger receptor class B member 1 (Mus musculus, UniProt Q61009)","[3H]cholesteryl ester uptake from HDL, inhibitor",ldlA cells expressing mouse SR-BI,,,50 nM
CCCCCCCCCCCCCC(=S)NCCCC[C@H](NS(C)(=O)=O)C(=O)N[C@@H](C)C(=O)N[C@@H](CCCNC(=N)N)C(N)=O,"NAD-dependent protein deacetylase sirtuin-1 (SIRT1, Homo sapiens, UniProt Q96EB6)","enzyme activity, inhibitor, HPLC",,,,2300 nM
COC1CCC(C[C@H](NC(=O)[C@H](CC(C)C)NC(=O)[C@H](Cc2ccc(CN)cc2)NC(=O)[C@H](Cc2ccccc2)N=[N+]=[N-])C(=O)[C@@]2(C)CO2)CC1 (stereo partly shown),PSMB5,competitive ABPP,Raji cell lysate,,,8110 nM
Cc1nc2ccccc2c(=O)n1N,F2,"enzyme activity, inhibitor",,,,79900 nM
Nc1ncnc2c1ncn2C1OC(COP(=O)(O)O)C(O)C1O (stereo not shown),"Fructose-1,6-bisphosphatase 1 (Mus musculus, UniProt Q9QXD6)","enzyme activity, inhibitor",,,,13400 nM
Cc1ccc(S(=O)(=O)N2N=Cc3ccsc3B2O)cc1,F2,"enzyme activity, inhibitor",,,,> 100000 nM
O=C(Nc1ccccc1)Nc1ccccc1O,"SRSF protein kinase 3 (SRPK3, Homo sapiens, UniProt Q9UPE1)","enzyme activity, inhibitor, FRET",,,,6500 nM
Cc1ccc(N2CCNCC2COc2ccc3c(c2)OCO3)cc1 (stereo not shown),"P2X purinoceptor 4 (P2RX4, Homo sapiens, UniProt Q99571)","calcium flux, inhibitor, Ca2+ flux",human cells,,,2690 ± 1320 nM
CC[C@H](C)[C@H](NC(=O)[C@H](CCCNC(=N)N)NC(=O)[C@@H]1CCCN1C(=O)[C@H](CC(C)C)NC(=O)[C@@H](N)CCCCN)C(=O)N[C@@H](CCCNC(=N)N)C(=O)N[C@@H](CC(C)C)C(=O)O,"B1 bradykinin receptor (Rattus norvegicus, UniProt P97583)","ligand displacement, radioligand",,cell membranes,,320 nM
CCCCCCCCN(Cc1ccc(CNC(=O)OCCOC23CC4CC(C2)CC(C(N)C(=O)N2C(C#N)CC5CC52)(C4)C3)cc1)CC(O)C(O)C(O)C(O)CO (stereo not shown),DPP9,"enzyme activity, inhibitor",,with preincubation,,600 nM
CC(=O)N[C@@H](CCCNC(=N)N)C(=O)N[C@H]1CSSC[C@@H](C(N)=O)NC(=O)[C@H](Cc2c[nH]c3ccccc23)NC(=O)[C@H](CCCNC(=N)N)NC(=O)[C@@H](Cc2ccc3ccccc3c2)NC(=O)[C@H](Cc2c[nH]cn2)NC(=O)[C@@H](C)NC1=O,"Melanocortin receptor 3 (MC3R, Homo sapiens, UniProt P41968)","antagonist, split-luciferase cAMP sensor",,"12 min, added: 30 nM α-MSH (EC90)",,21.3 nM and 22.3 nM
N#Cc1c(N)nc2c(c1-c1ccc(F)cc1)Cc1cc(O)ccc1-2,Thymocyte selection-associated high mobility group box protein TOX with KAT7,"TOX-KAT7 binding, inhibitor, ELISA",,,no inhibition at 10 µM,> 10000 nM
CSCC[C@@H](N)C(=O)N[C@@H](CC(C)C)C(=O)N[C@@H](CCCNC(=N)N)C(=O)N[C@@H](Cc1c[nH]c2ccccc12)C(=O)N[C@@H](CO)C(=O)N[C@@H](CCCNC(=N)N)C(=O)N[C@@H](CCCCN)C(=O)N[C@@H](CCSC)C(=O)N1CCC[C@H]1C(=O)N[C@@H](CS)C(=O)N[C@H](C(=O)N[C@@H](CO)C(=O)O)C(C)C,CXCR4,ligand displacement in cells,,,,312 nM
O=C1NCCC12CCN(c1c(Cl)cncc1-c1ccc(N3CCOCC3)cc1)CC2,"Cyclin-dependent kinase 19, with cyclin C (CDK19, Homo sapiens, UniProt Q9BWU1)",ligand displacement,,,,8 nM
Cc1nn(-c2cccc(N)c2)c(=O)c2cnc(Nc3ccc(N4CCNCC4)cc3)nc12,"Testis-specific serine/threonine-protein kinase 1 (TSSK1B, Homo sapiens, UniProt Q9BXA7)","enzyme activity, inhibitor",,,,> 10000 nM
CC(C)C[C@H](NC(=O)[C@H](CC(N)=O)NC(=O)[C@H](CC(N)=O)NC(=O)[C@H](CO)NC(=O)[C@H](CO)NC(=O)[C@H](CCCNC(=N)N)NC(=O)[C@@H](NC(=O)[C@H](CC(C)C)NC(=O)[C@H](Cc1ccccc1)NC(=O)[C@H](CC(N)=O)NC(=O)[C@H](C)NC(=O)[C@H](CC(C)C)NC(=O)[C@H](CCCNC(=N)N)NC(=O)[C@H](CCC(N)=O)NC(=O)[C@@H](NC(=O)[C@H](C)NC(=O)[C@@H]1CSSC[C@H](NC(=O)[C@@H](N)CCCCN)C(=O)N[C@@H](CC(N)=O)C(=O)N[C@@H]([C@@H](C)O)C(=O)N[C@@H](C)C(=O)N[C@@H]([C@@H](C)O)C(=O)N1)[C@@H](C)O)C(C)C)C(=O)NCC(=O)N1CCC[C@H]1C(=O)N[C@H](C(=O)N[C@@H](CC(C)C)C(=O)N1CCC[C@H]1C(=O)N1CCC[C@H]1C(=O)N[C@H](C(=O)N[C@@H](CC(N)=O)C(=O)N[C@H](C(=O)NCC(=O)N[C@@H](CO)C(=O)N[C@@H](CC(N)=O)C(=O)N[C@H](C(=O)N[C@@H](Cc1ccc(O)cc1)C(N)=O)[C@@H](C)O)C(C)C)[C@@H](C)O)C(C)C,PSMB5,"chymotrypsin-like activity, inhibitor",purified 20S proteasome,added: Suc-LLVY-AMC,,~100 nM
Cc1c(COc2cc(OCc3cccc(C#N)c3)c(CNCCO)cc2Cl)cccc1-c1cccc(OCCCCCCC(=O)NO)c1,CD274 with PD-1,"PD-1/PD-L1 binding, inhibitor, HTRF",,,,109 nM
Fc1ccc(Nc2nc(NC3CCCCC3)c3cc(C(F)(F)F)ccc3n2)cc1F,"Beta-2 adrenergic receptor (ADRB2, Homo sapiens, UniProt P07550, I153L)","β-arrestin2 recruitment, antagonist, BRET",HEK293,"mutant I153L, added: isoprenaline 1 µM",,398 nM
CC(C)C[C@H](NC(=O)[C@H](Cc1ccc(CN)cc1)NC(=O)[C@H](Cc1ccccc1)N=[N+]=[N-])C(=O)N[C@@H](CC1CCC2CCCCC2C1)C(=O)[C@@]1(C)CO1 (stereo partly shown),PSMB5,competitive ABPP,Raji cell lysate,,,> 10000 nM
Fc1ccc2nc(NCCCNCc3cc(Cl)cc(Cl)c3)[nH]c2n1,"Methionyl-tRNA synthetase, putative","enzyme activity, inhibitor",,,,< 10 nM
Cc1c[nH]c2nccc(-c3ccc(C(=O)N[C@@H]4c5c(F)cc(C(F)F)cc5C[C@@H]4O)cn3)c12,"cAMP-dependent protein kinase catalytic subunit beta (PRKACB, Homo sapiens, UniProt P22694)","enzyme activity, inhibitor",,,,0.7 nM
O=C(CNC(=O)c1cccc(NC2=NCC(F)(F)CN2)c1)NC[C@H](NC(=O)c1c(Cl)cc(-c2ccccc2)cc1Cl)C(=O)O,Integrin alpha-5/beta-1,cell adhesion,SW480,added: fibronectin,,0.4 to 0.5 nM
O=S(=O)(O)O/N=C(/Cc1ccccc1)S[C@@H]1O[C@H](CO)[C@@H](O)[C@H](O)[C@H]1O,"Tyrosine-protein phosphatase non-receptor type 1 (PTPN1, Homo sapiens, UniProt P18031)","enzyme activity, inhibitor, absorbance",,,,11100 nM
CC(C)C[C@H](NC(=O)c1ccccc1)C(=O)N[C@@H](CC(C)C)C(=O)N[C@H](/C=C/S(C)(=O)=O)Cc1ccc(CN)cc1,PSMB5,competitive ABPP,Raji cell lysate,,,> 10000 nM
CCN(CC)CC(=O)Nc1cccc(-n2cc(-c3ccc4ccc(-c5cn(-c6cccc(NC(=O)CN(CC)CC)c6)nn5)cc4c3)nn2)c1,"Receptor-type tyrosine-protein kinase FLT3 (FLT3, Homo sapiens, UniProt P36888, D835Y)","enzyme activity, inhibitor",,,,> 10000 nM
